{"data": "Assay results collected from several papers", "note": "Values joined by “and” are separate records of one study, mostly repeats; a detail may differ. ± gives the spread as reported."}
{"SMILES": "COc1cccc(N2CCN(S(=O)(=O)c3ccc(-n4cnnn4)cc3)CC2)c1", "cell line": "C127 LDR GFP reporter cells", "test": "silenced GFP reporter induction, activator, high-content imaging", "setting": "independent samples, two-run mean", "quantity": "maximum efficacy", "result": "33%"}
{"SMILES": "CCn1cc(-c2cc(Cn3ccnc3)cc3c2CCN([C@H](c2cc(OC)ccn2)C2CC2)C3=O)c(C(F)(F)F)n1", "cell line": "MDA-MB-436", "test": "cell growth, inhibitor", "setting": "120 h", "quantity": "EC50", "result": "1.87 µM"}
{"SMILES": "C[n+]1cc2c3c(ccc2c2ccc4cc5c(cc4c21)OCO5)OCO3", "cell line": "MYBPC3 iPSC cardiomyocytes", "test": "plate-normalised", "setting": "concentration not given, 24 h, hit retest", "quantity": "MyBP-C level", "result": "0.1%"}
{"SMILES": "O=C(CCCSc1nc2c(c(=O)[nH]1)CCCC2)Nc1ccc(F)cc1", "cell line": "cells, COS-1, expressing proMMP-9", "test": "cell migration, 2D collagen dot migration", "setting": "50 µM, 18 h", "quantity": "inhibition", "result": "90 ± 2%"}
{"SMILES": "Cc1cc(C)n(-c2nc(-c3ccc(Cl)cc3)c3c(NC(=O)c4ccccc4)nnc-3[nH]2)n1", "cell line": "M14", "test": "SRB", "setting": "10 µM, NCI60 single-dose screen", "scale": "baseline: untreated", "quantity": "cell growth", "result": "68.2%"}
{"SMILES": "N#Cc1sc2nc(-c3ccccc3)cc(C(F)(F)F)c2c1N", "cell line": "C127 LDR GFP reporter cells", "test": "silenced GFP reporter induction, activator, high-content imaging", "setting": "retest, two-run mean", "quantity": "efficacy", "result": "20%"}
{"SMILES": "OCC(O)CN1CCN(c2ccccc2)CC1 (stereo not shown)", "cell line": "human iPSC-derived cardiomyocytes", "test": "MyBP-C/MYH ratio, plate-normalised SD score", "setting": "concentration not given, primary screen", "scale": "direction not given", "quantity": "activity score", "result": 4}
{"SMILES": "COc1ccc(-n2nc(C(C)=O)s/c2=N\\N=C(/C)c2ccc(NC(=O)c3ccc(Cl)cc3)cc2)cc1", "cell line": "HepG2", "setting": "0.078 µM", "quantity": "toxicity", "result": "16%"}
{"SMILES": "C=CCn1c(=O)c2cnc(Nc3ccc(N4CCN(C)CC4)cc3)nc2n1-c1ccc2c(n1)[C@@](O)(CC)CC2", "cell line": "MDA-MB-231", "test": "flow cytometry", "setting": "concentration not given", "quantity": "EdU-negative S phase mitotic cells", "result": "2.73%"}
{"SMILES": "C[C@@]12C(=O)OC(=O)[C@]1(C)[C@H]1CC[C@@H]2O1", "cell line": "MYBPC3 iPSC cardiomyocytes", "test": "plate-normalised", "setting": "concentration not given, 24 h, hit retest", "quantity": "MyBP-C level", "result": "2%"}
{"SMILES": "CC(C)NCC(O)c1ccc(O)c(O)c1 (stereo not shown)", "cell line": "mouse ventricular cardiomyocytes", "setting": "dose not given, 0.227 s", "quantity": "sarcomere length", "result": "1.79 µm"}
{"SMILES": "CCCCc1nc(Cl)c(CO)n1Cc1ccc(-c2ccccc2-c2nn[nH]n2)cc1", "cell line": "human PBMC", "test": "RNA-seq, refers to: STEAP4 mRNA", "setting": "10 µg/mL, 24 h", "scale": "baseline: untreated control", "quantity": "log2 fold change", "result": -1.9}
{"SMILES": "CC(Cc1cccc(C(F)(F)F)c1)NCCOC(=O)c1ccccc1 (stereo not shown)", "cell line": "human iPSC-derived cardiomyocytes", "test": "MyBP-C/MYH ratio, plate-normalised SD score", "setting": "concentration not given, primary screen", "scale": "direction not given", "quantity": "activity score", "result": 5}
{"SMILES": "Cn1cc(Nc2nccc(-c3ccc4c(c3)CN(C3COC3)CC[C@H]4NC(=O)c3cn(C(C)(C)C)nn3)n2)cn1", "cell line": "mouse splenic B cells", "test": "refers to: Prolactin signalling", "setting": "30 mg/kg, IgD-activated in vivo", "scale": "baseline: vehicle, direction not given", "quantity": "pathway activation z-score", "result": 1.94}
{"SMILES": "O=c1c2ccccc2nc(COc2ccccc2)n1/N=C/c1c[nH]c2ccccc12", "cell line": "C127 LDR GFP reporter cells", "test": "silenced GFP reporter induction, activator, high-content imaging", "setting": "retest, two-run mean", "quantity": "efficacy", "result": "26%"}
{"SMILES": "O=C(/C=C/C=C/C=C/C1CCCCC1)NC1=C[C@@](O)(/C=C/C=C/C=C/C(=O)NC2=C(O)CCC2=O)[C@@H]2O[C@@H]2C1=O", "cell line": "NCI-H838", "test": "cell growth, CellTiter-Glo", "setting": "78 h", "quantity": "GI50", "result": "21.8 µM"}
{"SMILES": "COc1cnc2cccc(N3CCc4c(cc(Cn5ccnc5C)cc4-c4cn(C)nc4C(F)(F)F)C3=O)c2c1", "cell line": "NCI-H929", "test": "cell growth, inhibitor", "setting": "120 h", "quantity": "EC50", "result": "> 30 µM"}
{"SMILES": "C[C@H]1[C@@H](O)O[C@@H]2O[C@@]3(C)CC[C@H]4[C@H](C)CC[C@@H]1[C@@]24OO3", "cell line": "THP-1", "test": "annexin V/PI flow cytometry, refers to: annexin V-/PI-", "setting": "3.2 µM, 24 h", "quantity": "viable cells", "result": "95.9%"}
{"SMILES": "O=c1[nH]c(=O)c2cc(S(=O)(=O)Nc3ccc(N4CCCCCC4)cc3)ccc2[nH]1", "cell line": "adult rat ventricular myocytes", "setting": "10 µM", "scale": "baseline: basal", "quantity": "time to 50% relaxation", "result": "130 ± 9%"}
{"SMILES": "CC(=O)Nc1cccc(-n2c(=O)n(C3CC3)c(=O)c3c(Nc4ccc(I)cc4F)n(C)c(=O)c(C)c32)c1", "cell line": "LoVo (KRAS G13D)", "test": "cell viability, resazurin", "setting": "6.25 nM, 72 h", "scale": "baseline: DMSO", "quantity": "fractional effect", "result": "0.256 and 0.346"}
{"SMILES": "O=C(C[C@@H](C(F)F)n1ccc(F)n1)N1CCC(O)(Cn2cnc3c(cnn3-c3ccc(F)cc3)c2=O)CC1", "cell line": "CHP-212 parental", "test": "PI flow cytometry", "setting": "1 µM, 24 h", "quantity": "S phase cells", "result": "15.2%"}
{"SMILES": "CC12CC3CC(C)(C1)CC(N)(C3)C2", "cell line": "human iPSC-derived cardiomyocytes", "test": "MyBP-C/MYH ratio, plate-normalised SD score", "setting": "concentration not given, primary screen", "scale": "direction not given", "quantity": "activity score", "result": 3.1}
{"SMILES": "CC[C@H](C)N(CC(=O)N(CC(=O)N(CC(=O)N(CC(=O)N(CC(=O)N(CC(=O)N(CC(N)=O)[C@@H](C)c1ccccc1)[C@@H](C)c1ccccc1)[C@@H](C)CC)[C@@H](C)c1ccccc1)[C@@H](C)c1ccccc1)[C@@H](C)CC)C(=O)CNCCCCN", "cell line": "THP-1 macrophages", "test": "refers to: IL-8", "setting": "50 µM, 72 h, together with: LPS 2 ng/mL", "scale": "baseline: LPS alone", "quantity": "cytokine release", "result": "decreased"}
{"SMILES": "Cc1cc(Nc2ncc(Cl)c(Nc3ccccc3S(=O)(=O)C(C)C)n2)c(OC(C)C)cc1C1CCNCC1", "cell line": "CLB-GE", "test": "phosphoproteomics LC-MS/MS, refers to: PTPN11 phosphorylation", "setting": "200 nM, 60 min", "scale": "baseline: untreated", "quantity": "log2 fold change", "result": -2.25}
{"SMILES": "Cc1c(C(=O)O)c(O)cc2c1C(=O)c1c(O)c([C@@H]3O[C@H](CO)[C@@H](O)[C@H](O)[C@H]3O)c(O)c(O)c1C2=O", "cell line": "human iPSC-derived cardiomyocytes", "test": "MyBP-C/MYH ratio, plate-normalised SD score", "setting": "concentration not given, primary screen", "scale": "direction not given", "quantity": "activity score", "result": 3.4}
{"SMILES": "Cn1cc(-c2ccc(-c3cncc(Cl)c3N3CCC4(CCNC4=O)CC3)cc2)cn1", "cell line": "COLO 205", "test": "gene expression, microarray, refers to: ANKRD37 mRNA", "setting": "concentration not given, 2 h", "scale": "baseline: untreated cells", "quantity": "log2 fold change", "result": 7.86}
{"SMILES": "C=CC1=C(C)c2cc3[n-]c(cc4nc(cc5[n-]c(cc1n2)c(C)c5C=C)C(C)=C4CCC(=O)O)c(CCC(=O)O)c3C.[Zn+2]", "cell line": "SH-SY5Y", "test": "RNA-seq, refers to: ERRFI1 mRNA", "setting": "5 µM, 5 h", "scale": "baseline: untreated cells", "quantity": "fold change", "result": 1.58}
{"SMILES": "NCCCOc1cc(NC(=O)c2cccc(C(=O)Nc3cc(OCCCN)c4ccccc4n3)n2)nc2ccccc12", "cell line": "U2OS", "test": "cell viability, CellTiter-Glo", "setting": "72 h", "scale": "baseline: IC50 U2OS over WI-38", "quantity": "selectivity ratio", "result": 1.1}
{"SMILES": "Cc1cccc(-c2[nH]c(CNc3ccccc3F)nc2-c2ccc3ncnn3c2)n1", "cell line": "RPMI-8226", "test": "flow cytometry, refers to: CD227", "setting": "concentration not given", "scale": "baseline: comparator compound alone", "quantity": "surface marker level", "result": "46.6%"}
{"SMILES": "CC(C)(O)c1coc(S(=O)(=O)NC(=O)Nc2c3c(cc4c2CCC4)CCC3)c1", "cell line": "THP-1 cells, LPS-primed", "test": "pyroptosis, LDH release", "setting": "25 µM, LPS 1 µg/mL, 4 h, together with: nigericin 5 µM, 2 h", "quantity": "cell lysis", "result": "27.9% and 27.3%"}
{"SMILES": "CC(C)(c1ccc(O)cc1)c1ccc(O)cc1", "cell line": "HepG2 spheroids", "test": "Hoechst flow cytometry", "setting": "10 µM, 24 h", "quantity": "G1 phase cells", "result": "73.2 ± 5.21%"}
{"SMILES": "CCn1cc(-c2cc(Cn3ccoc3=N)cc3c2CCN([C@@H](C)c2cc(OC)ccn2)C3=O)c(C(F)(F)F)n1", "cell line": "REH", "test": "cell growth, inhibitor", "setting": "120 h", "quantity": "EC50", "result": "0.764 µM"}
{"SMILES": "Cc1ccc(Sc2cc(NCCCO)c([N+](=O)[O-])c3nonc23)cc1", "cell line": "C127 LDR GFP reporter cells", "test": "silenced GFP reporter induction, activator, high-content imaging", "setting": "retest, two-run mean", "quantity": "efficacy", "result": "74%"}
{"SMILES": "O=c1cc[nH]c(=O)[nH]1", "cell line": "human iPSC-derived cardiomyocytes", "test": "MyBP-C/MYH ratio, plate-normalised SD score", "setting": "concentration not given, primary screen", "scale": "direction not given", "quantity": "activity score", "result": 5.5}
{"SMILES": "CCCCc1oc2ccc(NS(C)(=O)=O)cc2c1C(=O)c1ccc(OCCCN(CCCC)CCCC)cc1", "cell line": "human embryonic stem cell aggregates", "test": "mRNA level, microarray, refers to: MEOX1", "setting": "0.5 µM, 120 h", "scale": "baseline: untreated, down-regulated", "quantity": "fold change", "result": "2.3 fold"}
{"SMILES": "Oc1c(Br)cc(Br)c2cccnc12", "cell line": "human iPSC-derived cardiomyocytes", "test": "MyBP-C/MYH ratio, plate-normalised SD score", "setting": "concentration not given, primary screen", "scale": "direction not given", "quantity": "activity score", "result": 4.9}
{"SMILES": "[Cl-].[Cl-].[Os+2].c1cnc2c(c1)ccc1cccnc12.c1cnc2c(c1)ccc1cccnc12.c1cnc2c(c1)ccc1cccnc12", "cell line": "SK-MEL-28", "test": "phototoxicity, resazurin", "setting": "normoxia, together with: red light 633 nm, 100 J/cm2, 20 mW/cm2", "quantity": "EC50", "result": "101 ± 5 µM"}
{"note": "Excerpt of the above:"}
{"SMILES": "COc1cccc(N2CCN(S(=O)(=O)c3ccc(-n4cnnn4)cc3)CC2)c1", "cell line": "C127 LDR GFP reporter cells", "test": "silenced GFP reporter induction, activator, high-content imaging", "setting": "independent samples, two-run mean", "quantity": "maximum efficacy", "result": "33%"}
{"SMILES": "CCn1cc(-c2cc(Cn3ccnc3)cc3c2CCN([C@H](c2cc(OC)ccn2)C2CC2)C3=O)c(C(F)(F)F)n1", "cell line": "MDA-MB-436", "test": "cell growth, inhibitor", "setting": "120 h", "quantity": "EC50", "result": "1.87 µM"}
{"SMILES": "C[n+]1cc2c3c(ccc2c2ccc4cc5c(cc4c21)OCO5)OCO3", "cell line": "MYBPC3 iPSC cardiomyocytes", "test": "plate-normalised", "setting": "concentration not given, 24 h, hit retest", "quantity": "MyBP-C level", "result": "0.1%"}
{"SMILES": "O=C(CCCSc1nc2c(c(=O)[nH]1)CCCC2)Nc1ccc(F)cc1", "cell line": "cells, COS-1, expressing proMMP-9", "test": "cell migration, 2D collagen dot migration", "setting": "50 µM, 18 h", "quantity": "inhibition", "result": "90 ± 2%"}
